Experimental data pooled from the literature.
± gives the spread as reported.

With `O[C@H]1CCCN[C@@H]1CCCn1cnc2c(Cl)c(Cl)ccc21` the median Tmax was 4 h (healthy humans, plasma; oral, 150 mg single dose).
With `O=c1nc(NO)ccn1[C@@H]1O[C@H](CO)[C@@H](O)[C@H]1O` the freeze-thaw stability was 102 ± 5.33% (rat fetus dialysate; 25 ng/mL, low concentration, three cycles, with: molnupiravir 5 ng/mL).
For `C=CC(=O)Nc1cc(Nc2nccc(Nc3cc(Cl)c(F)cc3C(C)(C)O)n2)c(OC)cc1N1CC[C@@H](N(C)C)C1`, “patients with paronychia” read 25% (human patients; oral, 200 mg, treatment-emergent adverse events).
`CO[C@H]1C[C@@H]2CC[C@@H](C)[C@@](O)(O2)C(=O)C(=O)N2CCCC[C@H]2C(=O)O[C@H]([C@H](C)C[C@@H]2CC[C@@H](OC(=O)NCCOCCOCCOCCOCCOCCOCCOCCOCCC(=O)N3CCc4cc(Cn5nc(-c6ccc7oc(N)nc7c6)c6c(N)ncnc65)ccc4C3)[C@H](OC)C2)C[C@@H](O)[C@H](C)/C=C(\C)[C@@H](O)[C@@H](OC)C(=O)[C@H](C)C[C@H](C)/C=C/C=C/C=C/1C` — result for “AE leading to dose reduction”: 8.3% (patients with advanced solid tumours; intravenous, 12 mg weekly, any grade).
For `CC(C)(O)c1cc(Nc2cc(Oc3cn(C4CC4)nc3C3CCOCC3)ccn2)ccn1`, “treatment-emergent adverse events” read 0% (Pyrexia; advanced cancer patients, dose escalation; oral, dose not given, 2 weeks on/off, all causality grade ≥3).
The tissue uptake of `[Cl][212Pb][Cl]` is reported as 8.54 ± 1.54 %ID/g (athymic mice, C4-2 xenograft, liver; intravenous, 2 h, 212Pb-labelled).
`O=C1Nc2cc3[nH]nc(-c4ccncc4)c3cc2CN1Cc1ccccc1`: “patients with cough” 0% (CTCAE v4.03; advanced solid tumour patients; intravenous, 9.6 mg/kg, schedules 1/2).
Under “serum enzyme activity”, `O=S(=O)(Nc1ccccc1)c1ccc(NC(=S)Nc2ccccc2)cc1` is recorded as 158 U/L (refers to: ALKP; female mouse, blood; oral, 5 mg/kg daily, 14 days).
`Brc1ccc(Oc2cc(Br)c(Br)cc2Br)c(Br)c1`: “dose fraction in permeate” 11% (ultrafiltration; cow milk whey; 200 nM nominal in whole milk).
With `C[C@@H]1NC(=O)[C@H](CCCCNC(=O)CO/N=C/C(=O)NCCCC[C@@H]2NC(=O)[C@@H](Cc3ccccc3)NC(=O)[C@H](CC(=O)O)NC(=O)CNC(=O)[C@H](CCCNC(=N)N)NC2=O)NC(=O)CNC(=O)[C@@H]2CCCN2C(=O)[C@H](CCCCNC(=O)CO/N=C/C(=O)NCCCC[C@@H]2NC(=O)[C@@H](Cc3ccccc3)NC(=O)[C@H](CC(=O)O)NC(=O)CNC(=O)[C@H](CCCNC(=N)N)NC2=O)NC(=O)[C@H](CCCCNC(=O)[C@H](CCCCN)NC(=O)[C@H](Cc2ccccc2)NC(=O)CNC(=O)CN2CCCNCCNCCCNCC2)NC(=O)[C@H](CCCCNC(=O)CO/N=C/C(=O)NCCCC[C@@H]2NC(=O)[C@@H](Cc3ccccc3)NC(=O)[C@H](CC(=O)O)NC(=O)CNC(=O)[C@H](CCCNC(=N)N)NC2=O)NC(=O)CNC(=O)[C@@H]2CCCN2C(=O)[C@H](CCCCNC(=O)CO/N=C/C(=O)NCCCC[C@@H]2NC(=O)[C@@H](Cc3ccccc3)NC(=O)[C@H](CC(=O)O)NC(=O)CNC(=O)[C@H](CCCNC(=N)N)NC2=O)NC1=O` [copper-64 labelled] the tissue uptake was 1.65 ± 0.33 %ID/g (normal mice, heart; intravenous, 0.74 MBq, 3 h post-injection).
`O=C(Nc1ccccc1)C1CCN(C(=O)Oc2cccnc2)CC1`: “subjects with Dysmenorrhoea adverse event” 0% (adverse event reporting; healthy women; oral, 100 mg, 9 days).
`CCc1ccc(CC/C=C/c2ccc3c(c2)C(=O)CC3)cc1` gave a Basophil percentage of 0.27% (Sprague-Dawley rat, female; oral, 120 mg/kg/day, 14 days).
The dose-normalised AUC(0-24) of `CC(C)(C(=O)NC1C2CC3CC1CC(C(N)=O)(C3)C2)N1CCN(c2ccc(C(F)(F)F)cn2)CC1` (centres unmarked) is reported as 0.57 (ng·h/mL)/mg (refers to: metabolite; human, CSF; oral, 50 mg once daily, 5 days, median).
The MRT of `Clc1nc[n]([Au][PH](c2ccccc2)(c2ccccc2)c2ccccc2)c1Cl` is reported as 11.4 h (NCG mouse, plasma; intraperitoneal, 10 mg/kg).
For `COc1ccc2c(c1)CN(C(=O)CCN1CCC(Cc3ccccc3)CC1)CC[S@@+]2[O-]`, “unbound plasma concentration” read 550 ± 190 nM (female Beagle dogs, chronic AV block, plasma; intravenous, 1 mg/kg, end of 10 min infusion).
Under “TEAE causing dose reduction”, `N[C@@H]1c2ccccc2OC12CCN(c1cnc3c(N4CCCc5ncccc54)n[nH]c3n1)CC2` is recorded as 25% (advanced solid tumour patients; oral, 150 mg once daily).
Under “all-cause adverse events”, `Cc1cccc(Cn2nc(C3CC3)c3c(NC(=O)c4cnc5cc(OCCN6CCN(C)CC6)ccn45)cccc32)n1` is recorded as 9.1% (CTCAE v4.03, refers to: vomiting; platinum-resistant ovarian cancer patients; oral, dose not given, with: pembrolizumab IV every 3 weeks).
`COc1cc2c(Oc3ccc4[nH]c(C)cc4c3F)ccnc2cc1OCC1(N)CC1` gave a Neutropenia incidence of 0% (paediatric recurrent refractory sarcoma; 10 mg).
`C[C@]1(CO)Cc2ncn(-c3ccc(C#N)c(Cl)c3)c2C(=O)O1`: “half-life at steady state” 5.4 h (human, plasma; 40 mg once daily, fasted).
Under “grade ≥3 leukopenia”, `NC(=O)[C@H]1CCN(c2ncnc(N)c2F)C[C@@H]1N1CCC[C@@H](Nc2cc(Cl)cc(C(F)(F)F)c2)C1=O` is recorded as 0% (B-cell malignancy patients; oral, 164 mg twice daily, dose).
For `CC[C@H](C)[C@H](NC(=O)[C@H](Cc1ccccc1)NC(=O)[C@H](CCC(=O)O)NC(=O)[C@H](CCCNC(=N)N)NC(=O)[C@H](C)NC(=O)[C@H](C)NC(=O)[C@H](CCC(N)=O)NC(=O)[C@H](CCC(=O)O)NC(=O)[C@H](CCC(=O)O)NC(=O)[C@H](CC(C)C)NC(=O)[C@H](Cc1ccc(O)cc1)NC(=O)[C@H](CO)NC(=O)[C@H](CO)NC(=O)[C@@H](NC(=O)[C@H](CC(=O)O)NC(=O)[C@H](CO)NC(=O)[C@@H](NC(=O)[C@H](Cc1ccccc1)NC(=O)[C@@H](NC(=O)CNC(=O)[C@H](CCC(=O)O)NC(=O)[C@H](C)NC(=O)CCc1cnc[nH]1)[C@@H](C)O)[C@@H](C)O)C(C)C)C(=O)N[C@@H](C)C(=O)N[C@@H](Cc1c[nH]c2ccccc12)C(=O)N[C@@H](CC(C)C)C(=O)N[C@H](C(=O)N[C@@H](CCCNC(=N)N)C(=O)NCC(=O)N[C@@H](CCCNC(=N)N)C(=O)N[C@@H](CCCCNC(=O)COCCOCCNC(=O)COCCOCCNC(=O)CC[C@H](NC(=O)CCCCCCCCCCCCCCCCC(=O)O)C(=O)O)C(=O)NCC(=O)NCC(=O)N[C@@H](CO)C(=O)N[C@@H](CCCCNC(=O)[C@H](CCCCNc1c(NCCCCCN(O)C(=O)CCC(=O)NCCCCCN(O)C(=O)CCC(=O)NCCCCCN(O)C(C)=O)c(=O)c1=O)Nc1c(NCCCCCN(O)C(=O)CCC(=O)NCCCCCN(O)C(=O)CCC(=O)NCCCCCN(O)C(C)=O)c(=O)c1=O)C(=O)O)C(C)C` [zirconium-89 labelled], the tissue uptake was 0.683 %ID/g (ex vivo gamma counting; male Sprague-Dawley rats, bone marrow; intravenous, 1 nmol, 24 h).
With `COc1cccc(Oc2ccccc2NC(=O)CNC(=O)c2cccc3ccccc23)c1` the total bilirubin was 0.1 mg/dL (esterase-deficient SCID mice, male; oral, 100 mg/kg/day, 14 days, toxicity study).
`C[C@H]1CN(C(=O)CC#N)[C@]12CCN(c1ncnc3[nH]ccc13)C2` has an NOAEL of 12 mg/kg (minipig, male and female; dermal, 1 months, highest dose given).
`CC(C)[C@@H]1NC(=O)CNC(=O)[C@H](CC(N)=O)NC(=O)[C@H](CCCNC(=N)N)NC(=O)[C@H](Cc2ccc(O)cc2)NC(=O)[C@H](C(C)C)NC(=O)[C@@H](NC(=O)[C@@H](NC(=O)[C@H](CC(N)=O)NC(=O)[C@H](Cc2c[nH]c3ccccc23)NC(=O)[C@H](C)NC(=O)[C@H](Cc2ccccc2)NC(=O)CN)C(C)C)CSSC[C@@H](C(=O)N[C@@H](Cc2cnc[nH]2)C(=O)N[C@@H](CCCNC(=N)N)C(=O)N[C@@H](CCCNC(=N)N)C(=O)N[C@@H](C)C(=O)N[C@@H](CC(N)=O)C(N)=O)NC(=O)[C@H](C(C)C)NC(=O)[C@H](CCCNC(=N)N)NC1=O` has a remaining peptide of 1% (HPLC; trypsin; 2560 µM, 6.00 h, with: trypsin 1 % w/v).
`CC1(C)C(/C=C(\Cl)C(F)(F)F)C1C(=O)OC(C#N)c1cccc(Oc2ccccc2)c1` (centres unmarked) — result for “enzyme contribution to clearance”: 0.09% (refers to: CYP2C8; human, age 6 months).
`COc1ccnc(C(=O)N[C@H]2COC(=O)[C@H](Cc3ccccc3)[C@@H](OC(=O)C(C)C)[C@H](C)OC2=O)c1OCOC(=O)C(C)C` has an NOAEL of 177 mg/kg/day (maternal toxicity, body weight loss; rabbit).

Some of these lines once more:
For `C=CC(=O)Nc1cc(Nc2nccc(Nc3cc(Cl)c(F)cc3C(C)(C)O)n2)c(OC)cc1N1CC[C@@H](N(C)C)C1`, “patients with paronychia” read 25% (human patients; oral, 200 mg, treatment-emergent adverse events).
`CO[C@H]1C[C@@H]2CC[C@@H](C)[C@@](O)(O2)C(=O)C(=O)N2CCCC[C@H]2C(=O)O[C@H]([C@H](C)C[C@@H]2CC[C@@H](OC(=O)NCCOCCOCCOCCOCCOCCOCCOCCOCCC(=O)N3CCc4cc(Cn5nc(-c6ccc7oc(N)nc7c6)c6c(N)ncnc65)ccc4C3)[C@H](OC)C2)C[C@@H](O)[C@H](C)/C=C(\C)[C@@H](O)[C@@H](OC)C(=O)[C@H](C)C[C@H](C)/C=C/C=C/C=C/1C` — result for “AE leading to dose reduction”: 8.3% (patients with advanced solid tumours; intravenous, 12 mg weekly, any grade).
For `CC(C)(O)c1cc(Nc2cc(Oc3cn(C4CC4)nc3C3CCOCC3)ccn2)ccn1`, “treatment-emergent adverse events” read 0% (Pyrexia; advanced cancer patients, dose escalation; oral, dose not given, 2 weeks on/off, all causality grade ≥3).
The tissue uptake of `[Cl][212Pb][Cl]` is reported as 8.54 ± 1.54 %ID/g (athymic mice, C4-2 xenograft, liver; intravenous, 2 h, 212Pb-labelled).
